Measurements gathered from unrelated publications.
Several values in a cell are separate wells, animals, samples, runs or records. ± gives the spread as reported.
Nuclear receptor subfamily 2 group C member 2 ligand-binding domain: Nuclear receptor subfamily 2 group C member 2, ligand-binding domain (Homo sapiens, UniProt P49116)
UniProt P49116, sequence (whole entry, looked up): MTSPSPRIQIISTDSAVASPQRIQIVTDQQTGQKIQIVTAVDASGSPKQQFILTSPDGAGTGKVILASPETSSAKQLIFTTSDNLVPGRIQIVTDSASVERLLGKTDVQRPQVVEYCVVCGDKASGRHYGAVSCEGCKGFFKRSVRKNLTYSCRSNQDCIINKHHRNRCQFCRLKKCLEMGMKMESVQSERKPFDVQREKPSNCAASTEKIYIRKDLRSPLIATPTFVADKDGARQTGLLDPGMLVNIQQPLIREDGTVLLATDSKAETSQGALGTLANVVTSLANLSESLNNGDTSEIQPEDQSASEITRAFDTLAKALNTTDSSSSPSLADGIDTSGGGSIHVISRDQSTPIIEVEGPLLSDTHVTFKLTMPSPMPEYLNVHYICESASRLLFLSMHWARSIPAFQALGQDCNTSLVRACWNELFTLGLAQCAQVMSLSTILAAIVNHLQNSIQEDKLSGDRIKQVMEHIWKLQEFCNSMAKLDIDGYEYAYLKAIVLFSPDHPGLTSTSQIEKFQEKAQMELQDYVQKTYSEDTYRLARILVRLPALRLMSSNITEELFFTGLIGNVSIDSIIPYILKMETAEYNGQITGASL

| SMILES | tested on | test | conditions | scale | measurement | value |
| --- | --- | --- | --- | --- | --- | --- |
| Nc1ccccc1NC(=O)c1ccc(CNC(=O)OCc2cccnc2)cc1 | OCI-Ly1 |  | 0.5 µM, 120 h |  | viability | 120% |
| COc1cc2ncnc(Nc3ccc(Oc4ccccc4)c(C)c3C)c2cc1OC | LoVo (KRAS G13D) | resazurin | 3 µM, 72 h, with: trametinib 0 nM |  | viability | 72.7% |
| Cc1nc2ccc(N(Cc3ccc(F)cc3)Cc3ccc(F)cc3)cc2[nH]1 | sample A patient iPSC-derived NPCs | MTS | 10 µM, 24 h | baseline: vehicle | viability | 123 ± 15.1% |
| O=C(/C=C/c1ccc(CN(CCO)CCc2c[nH]c3ccccc23)cc1)NO | OCI-Ly1 |  | 0.5 µM, 120 h |  | viability | 2.37% |
| COc1cc2ncnc(Nc3ccc(Oc4ccccc4)cc3C)c2cc1OC | COLO 205 (BRAF V600E) | resazurin | 0.1 µM, 72 h, with: trametinib 0 nM |  | viability | 103% |
| Clc1ccc(COC(Cn2ccnc2)c2ccc(Cl)cc2Cl)c(Cl)c1 (centres unmarked) | Nuclear receptor subfamily 2 group C member 2 ligand-binding domain | SPR imaging |  |  | Kd | 53.1 nM |
| Cc1cccc(-c2[nH]c(CNc3ccccc3F)nc2-c2ccc3ncnn3c2)n1 | MM1.S | XTT | 0.4 µM |  | viability | 78% and 102% and 98% |
| FC(F)(F)Oc1ccc(CNc2ccc3nc(COCc4ccccc4)[nH]c3c2)cc1 | sample A patient iPSC-derived NPCs | MTS | 10 µM, 24 h | baseline: vehicle | viability | 157 ± 10.5% |
| COc1cc(C(=O)NC2CCCNC2)cc(OC)c1OC (centres unmarked) | Nuclear receptor subfamily 2 group C member 2 ligand-binding domain | SPR imaging |  |  | Kd | 0.0131 nM |
| Cn1cc(/C=C/C(=O)c2cccc(F)c2)cc1/C=C/C(=O)NO | OCI-Ly1 |  | 0.5 µM, 120 h |  | viability | 149% |
| Cc1nc2ccc(N(Cc3ccc(C(F)(F)F)cc3)Cc3ccc(C(F)(F)F)cc3)cc2o1 | sample A patient iPSC-derived NPCs | MTS | 10 µM, 24 h | baseline: vehicle | viability | 124 ± 8.75% |
